# Measured values collected from several papers.
# Numbered parts are unrelated; each lists some results of a single study. “And” joins repeats or separate records; there may be more than shown.
# Sequence of UniProt P11802 (whole entry, looked up): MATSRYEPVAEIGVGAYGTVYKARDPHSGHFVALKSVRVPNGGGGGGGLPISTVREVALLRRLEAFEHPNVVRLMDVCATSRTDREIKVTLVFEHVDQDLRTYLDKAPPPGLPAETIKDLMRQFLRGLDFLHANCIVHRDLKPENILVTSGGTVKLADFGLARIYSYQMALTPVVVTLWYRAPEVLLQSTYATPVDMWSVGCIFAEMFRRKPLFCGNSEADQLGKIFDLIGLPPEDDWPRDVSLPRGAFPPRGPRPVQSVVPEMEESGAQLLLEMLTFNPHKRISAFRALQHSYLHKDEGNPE
# Sequence of UniProt Q9UQ88 (whole entry, looked up): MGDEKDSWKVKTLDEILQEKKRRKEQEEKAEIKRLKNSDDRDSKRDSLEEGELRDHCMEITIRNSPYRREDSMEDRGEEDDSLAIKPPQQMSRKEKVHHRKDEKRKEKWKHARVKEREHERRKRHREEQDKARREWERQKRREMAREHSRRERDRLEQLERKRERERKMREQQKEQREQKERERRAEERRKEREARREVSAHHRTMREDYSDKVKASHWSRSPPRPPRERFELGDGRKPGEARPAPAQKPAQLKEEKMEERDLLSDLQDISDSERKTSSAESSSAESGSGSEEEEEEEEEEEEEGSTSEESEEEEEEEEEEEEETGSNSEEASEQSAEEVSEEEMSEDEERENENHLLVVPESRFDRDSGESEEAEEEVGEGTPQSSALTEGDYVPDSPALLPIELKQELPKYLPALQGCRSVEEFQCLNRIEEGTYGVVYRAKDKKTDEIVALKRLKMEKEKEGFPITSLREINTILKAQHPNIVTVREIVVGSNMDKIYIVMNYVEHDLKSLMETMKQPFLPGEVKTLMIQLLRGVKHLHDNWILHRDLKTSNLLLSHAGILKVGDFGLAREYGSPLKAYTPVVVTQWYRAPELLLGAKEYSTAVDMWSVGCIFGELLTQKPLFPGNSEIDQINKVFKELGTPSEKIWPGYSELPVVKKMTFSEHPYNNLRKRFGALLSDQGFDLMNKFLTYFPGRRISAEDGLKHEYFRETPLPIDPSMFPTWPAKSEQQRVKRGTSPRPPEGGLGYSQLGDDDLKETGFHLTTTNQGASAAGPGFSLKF
# Sequence of UniProt P10721 (whole entry, looked up): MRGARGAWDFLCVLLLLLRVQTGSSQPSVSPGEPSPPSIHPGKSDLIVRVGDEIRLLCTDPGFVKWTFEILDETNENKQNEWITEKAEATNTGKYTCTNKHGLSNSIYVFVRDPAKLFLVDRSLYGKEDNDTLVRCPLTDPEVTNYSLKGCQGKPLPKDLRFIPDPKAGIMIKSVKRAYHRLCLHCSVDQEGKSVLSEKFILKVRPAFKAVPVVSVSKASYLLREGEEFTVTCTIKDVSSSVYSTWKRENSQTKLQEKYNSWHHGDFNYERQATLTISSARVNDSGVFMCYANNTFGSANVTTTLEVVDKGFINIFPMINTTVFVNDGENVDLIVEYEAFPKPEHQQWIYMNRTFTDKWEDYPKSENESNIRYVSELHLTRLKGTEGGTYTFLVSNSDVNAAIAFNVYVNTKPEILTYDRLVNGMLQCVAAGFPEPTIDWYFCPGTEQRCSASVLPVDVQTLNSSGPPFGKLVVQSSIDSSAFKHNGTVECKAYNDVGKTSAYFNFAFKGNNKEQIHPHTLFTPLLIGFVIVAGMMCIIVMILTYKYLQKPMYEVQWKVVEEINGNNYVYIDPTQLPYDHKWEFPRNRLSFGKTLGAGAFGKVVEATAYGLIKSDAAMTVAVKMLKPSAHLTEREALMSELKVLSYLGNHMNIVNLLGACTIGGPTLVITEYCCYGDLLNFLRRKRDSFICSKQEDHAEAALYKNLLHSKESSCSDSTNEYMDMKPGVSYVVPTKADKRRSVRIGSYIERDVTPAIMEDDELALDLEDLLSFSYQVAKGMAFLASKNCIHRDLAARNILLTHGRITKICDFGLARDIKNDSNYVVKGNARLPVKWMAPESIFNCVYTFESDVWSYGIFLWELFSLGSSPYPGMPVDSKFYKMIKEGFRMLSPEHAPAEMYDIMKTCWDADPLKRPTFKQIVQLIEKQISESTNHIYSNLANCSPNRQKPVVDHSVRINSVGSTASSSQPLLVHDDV

# Sample 1
# Target: Fibroblast growth factor receptor 2 (FGFR2, Homo sapiens, UniProt P21802)
# Sequence of UniProt P21802 (whole entry, looked up): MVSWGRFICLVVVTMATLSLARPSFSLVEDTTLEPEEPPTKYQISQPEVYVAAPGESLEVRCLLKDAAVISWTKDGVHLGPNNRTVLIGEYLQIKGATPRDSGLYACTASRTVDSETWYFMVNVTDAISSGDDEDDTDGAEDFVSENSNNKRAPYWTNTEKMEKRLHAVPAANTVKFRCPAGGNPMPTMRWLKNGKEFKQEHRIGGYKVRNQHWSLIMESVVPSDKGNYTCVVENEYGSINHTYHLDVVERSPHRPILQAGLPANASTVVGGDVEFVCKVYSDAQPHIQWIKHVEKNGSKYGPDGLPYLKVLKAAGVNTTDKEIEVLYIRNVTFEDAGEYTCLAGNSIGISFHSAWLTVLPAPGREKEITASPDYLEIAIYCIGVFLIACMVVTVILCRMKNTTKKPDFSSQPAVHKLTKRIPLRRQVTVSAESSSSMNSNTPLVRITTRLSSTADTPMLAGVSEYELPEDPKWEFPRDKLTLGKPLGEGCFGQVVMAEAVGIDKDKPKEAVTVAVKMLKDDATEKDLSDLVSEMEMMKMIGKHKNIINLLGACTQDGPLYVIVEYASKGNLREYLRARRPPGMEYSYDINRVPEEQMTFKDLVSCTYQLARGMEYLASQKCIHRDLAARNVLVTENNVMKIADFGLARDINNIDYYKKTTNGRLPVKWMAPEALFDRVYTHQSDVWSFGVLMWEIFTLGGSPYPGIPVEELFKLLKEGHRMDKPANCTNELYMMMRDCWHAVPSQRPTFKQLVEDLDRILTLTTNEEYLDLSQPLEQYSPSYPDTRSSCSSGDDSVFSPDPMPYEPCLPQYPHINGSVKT
# Observed: enzyme activity
# Action: inhibitor
# Concentration: 0.5 µM
# Reference: control
SMILES,remaining activity
Cc1cccc(-c2[nH]c(C(C)(C)C)nc2-c2ccc3c(c2)OCO3)n1,105%
CNC(=O)c1cc(Oc2ccc(NC(=O)Nc3ccc(Cl)c(C(F)(F)F)c3)cc2)ccn1,72.7%
CC(C)[C@H](CO)Nc1nc(Nc2cc(N)cc(Cl)c2)c2ncn(C(C)C)c2n1,97.3%
CO[C@H]1C[C@@H]2CC[C@@H](C)[C@@](O)(O2)C(=O)C(=O)N2CCCC[C@H]2C(=O)O[C@H]([C@H](C)C[C@@H]2CC[C@@H](O)[C@H](OC)C2)CC(=O)[C@H](C)/C=C(\C)[C@@H](O)[C@@H](OC)C(=O)[C@H](C)C[C@H](C)/C=C/C=C/C=C/1C,110%
OCC(O)CCON=C1C(c2c(O)[nH]c3ccccc23)=Nc2ccccc21 (centres unmarked),76%
Cn1c2ccccc2c2c3c(c4c5ccccc5n(CCC#N)c4c21)CNC3=O,79.8%
NCCNc1ncc(C(N)=O)c(Nc2cccc(C(F)(F)F)c2)n1,110%
COc1cc2ncnc(Nc3ccc(F)c(Cl)c3)c2cc1OCCCN1CCOCC1,98.7%
CN(C)c1ccc(C=C2C(=O)Nc3ccccc32)cc1,98.2%
Cc1ccc(Nc2nccc(N(C)c3ccc4c(C)n(C)nc4c3)n2)cc1S(N)(=O)=O,40.2%
COc1cc2ncnc(Nc3ccc(Oc4ccccc4)cc3)c2cc1OC,93.7%
Nc1[nH]nc2nc3ccccc3nc12,98.1%
O=C(Nc1cccc(Nc2cc(Nc3cccc(C(F)(F)F)c3)ncn2)c1)C1CC1,105%
O=c1c2ccccc2[nH]c(=S)n1CCN1CCC(=C(c2ccc(F)cc2)c2ccc(F)cc2)CC1,101%
Nc1ccc2ncnc(NCCc3ccc(Oc4ccccc4)cc3)c2c1,95.5%

# Sample 2
# SMILES: CC(C)C(=O)N1CCN(c2nc(OC[C@@H]3CCCN3C)nc3c2CCN(c2cccc4cccc(Cl)c24)C3)C[C@@H]1CC#N
# Observed: binding
# Action: competitor
# Method: NanoBRET
# Cells: HEK293
# KRAS G12D: GTPase KRas (KRAS, Homo sapiens, UniProt P01116, G12D)
target,conditions,normalized BRET
"GTPase KRas (KRAS, Homo sapiens, UniProt P01116, Q61R)",3.7 µM,113% and 94.3% and 108%
KRAS G12D,45.7 nM,94.6% and 86.4% and 95.1%
"GTPase KRas (KRAS, Homo sapiens, UniProt P01116, G13D)",1.24 µM,97.6% and 91.6% and 92.2%
"GTPase KRas (KRAS, Homo sapiens, UniProt P01116, Q61L)",11.1 µM,87.9% and 82.7% and 87.5%
KRAS G12D,15.2 nM,95.6% and 94.9% and 89.2%
"GTPase KRas (KRAS, Homo sapiens, UniProt P01116, Q61H)",33.3 µM,64.9% and 49.1% and 56.1%
KRAS G12D,1.24 µM,104% and 89.1% and 97.7%
KRAS G12D,11.1 µM,108% and 127% and 117%

# Sample 3
# SMILES: c1ccc2c(-c3nn4c(-c5ccncc5)nnc4s3)c[nH]c2c1
# Target: 1-phosphatidylinositol 3-phosphate 5-kinase (PIKFYVE, Homo sapiens, UniProt Q9Y2I7)
# Sequence of UniProt Q9Y2I7 (whole entry, looked up): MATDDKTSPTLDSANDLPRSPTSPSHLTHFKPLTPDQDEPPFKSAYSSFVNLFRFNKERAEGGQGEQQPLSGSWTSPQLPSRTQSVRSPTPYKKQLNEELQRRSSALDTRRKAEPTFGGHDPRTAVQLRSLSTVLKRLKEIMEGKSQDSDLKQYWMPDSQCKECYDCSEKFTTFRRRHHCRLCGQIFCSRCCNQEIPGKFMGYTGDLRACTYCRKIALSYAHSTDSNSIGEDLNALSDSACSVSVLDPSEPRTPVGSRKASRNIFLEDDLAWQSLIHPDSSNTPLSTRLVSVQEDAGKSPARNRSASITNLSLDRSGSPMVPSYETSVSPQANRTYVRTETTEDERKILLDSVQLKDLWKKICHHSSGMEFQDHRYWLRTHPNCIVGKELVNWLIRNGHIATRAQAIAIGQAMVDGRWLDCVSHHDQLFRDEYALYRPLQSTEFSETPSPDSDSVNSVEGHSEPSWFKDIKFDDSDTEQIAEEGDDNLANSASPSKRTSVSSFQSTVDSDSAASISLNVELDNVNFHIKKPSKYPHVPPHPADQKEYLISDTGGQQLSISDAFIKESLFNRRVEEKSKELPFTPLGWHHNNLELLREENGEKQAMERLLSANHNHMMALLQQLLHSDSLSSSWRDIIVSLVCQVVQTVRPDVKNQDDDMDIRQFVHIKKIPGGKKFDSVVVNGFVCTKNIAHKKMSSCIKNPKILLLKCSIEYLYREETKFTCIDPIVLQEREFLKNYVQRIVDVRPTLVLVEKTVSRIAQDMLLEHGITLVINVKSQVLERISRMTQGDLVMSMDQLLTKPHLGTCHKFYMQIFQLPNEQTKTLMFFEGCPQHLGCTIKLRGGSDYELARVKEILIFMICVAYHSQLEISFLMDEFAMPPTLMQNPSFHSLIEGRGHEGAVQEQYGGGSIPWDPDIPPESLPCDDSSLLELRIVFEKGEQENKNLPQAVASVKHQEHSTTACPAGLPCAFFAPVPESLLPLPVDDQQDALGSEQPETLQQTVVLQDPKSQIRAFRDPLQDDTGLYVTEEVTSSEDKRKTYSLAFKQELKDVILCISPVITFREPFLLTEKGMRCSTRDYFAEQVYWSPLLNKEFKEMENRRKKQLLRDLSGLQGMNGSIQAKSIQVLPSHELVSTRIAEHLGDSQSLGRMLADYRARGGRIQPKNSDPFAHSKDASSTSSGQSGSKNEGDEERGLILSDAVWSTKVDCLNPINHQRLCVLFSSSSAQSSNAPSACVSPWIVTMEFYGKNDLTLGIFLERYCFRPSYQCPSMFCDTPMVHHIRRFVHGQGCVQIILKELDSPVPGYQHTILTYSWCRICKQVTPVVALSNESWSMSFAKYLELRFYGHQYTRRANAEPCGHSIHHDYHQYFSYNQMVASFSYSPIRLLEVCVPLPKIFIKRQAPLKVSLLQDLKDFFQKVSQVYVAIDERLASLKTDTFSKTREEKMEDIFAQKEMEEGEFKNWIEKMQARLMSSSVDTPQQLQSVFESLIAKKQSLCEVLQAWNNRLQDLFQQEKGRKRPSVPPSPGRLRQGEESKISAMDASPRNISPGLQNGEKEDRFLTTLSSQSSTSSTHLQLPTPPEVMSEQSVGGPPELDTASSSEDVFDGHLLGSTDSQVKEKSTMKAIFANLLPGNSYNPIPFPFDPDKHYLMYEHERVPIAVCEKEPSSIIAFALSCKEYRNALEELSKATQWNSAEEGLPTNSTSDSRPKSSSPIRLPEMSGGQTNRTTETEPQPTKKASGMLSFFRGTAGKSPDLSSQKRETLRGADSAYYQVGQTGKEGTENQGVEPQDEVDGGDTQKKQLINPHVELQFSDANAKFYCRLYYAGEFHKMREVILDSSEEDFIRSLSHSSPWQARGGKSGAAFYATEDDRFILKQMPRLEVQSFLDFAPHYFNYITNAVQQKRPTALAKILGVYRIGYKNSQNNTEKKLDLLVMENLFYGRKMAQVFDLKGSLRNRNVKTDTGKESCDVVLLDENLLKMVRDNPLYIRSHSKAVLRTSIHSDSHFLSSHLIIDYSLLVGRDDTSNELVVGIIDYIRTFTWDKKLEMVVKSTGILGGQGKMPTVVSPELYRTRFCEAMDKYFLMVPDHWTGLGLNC
# Method: KINOMEscan
# Setting: unit not given
# Reference: DMSO
conditions,remaining binding
0.168 nM,0.317 and 0.299
10000 nM,0.00229 and 0.00156
3330 nM,0.0014 and 0.00222
0.503 nM,0.0826 and 0.0778
9900 nM,0.00155 and 0.00223
41.2 nM,0.00189 and 0.00197
0.508 nM,0.0732 and 0.0743
123 nM,0.0033 and 0.00237

# Sample 4
# Compound: O=C(NCCCC1CCCCC1)c1ccc(CNC(=O)c2cnn(-c3ccccc3)c2C(F)(F)F)cc1
# Method: competition with immobilised ligand
# Concentration: 0.1 µM
target,test,remaining binding [%]
"Transient receptor potential cation channel subfamily M member 6 (TRPM6, Homo sapiens, UniProt Q9BX84)",cell-free assay,94
"Wee1-like protein kinase 2 (WEE2, Homo sapiens, UniProt P0C1S8)",cell-free assay,100
"Serine/threonine-protein kinase Chk2 (CHEK2, Homo sapiens, UniProt O96017)",cell-free assay,100
"Serine/threonine-protein kinase PAK 4 (PAK4, Homo sapiens, UniProt O96013)",cell-free assay,100
"Serine/threonine-protein kinase PLK3 (PLK3, Homo sapiens, UniProt Q9H4B4)",cell-free assay,100
"RAF proto-oncogene serine/threonine-protein kinase (RAF1, Homo sapiens, UniProt P04049)",cell-free assay,99
"Cyclin-dependent kinase 11A (CDK11A, Homo sapiens, UniProt Q9UQ88)",binding,100
"ALK tyrosine kinase receptor (ALK, Homo sapiens, UniProt Q9UM73, C1156Y)",cell-free assay,100
"MAP kinase-interacting serine/threonine-protein kinase 2 (MKNK2, Homo sapiens, UniProt Q9HBH9)",cell-free assay,100
"TGF-beta receptor type-1 (TGFBR1, Homo sapiens, UniProt P36897)",cell-free assay,89
"Cyclin-dependent kinase 4, with cyclin D1 (CDK4, Homo sapiens, UniProt P11802)",cell-free assay,100
"Mitotic checkpoint serine/threonine-protein kinase BUB1 (BUB1, Homo sapiens, UniProt O43683)",cell-free assay,100
"Phosphatidylinositol 4,5-bisphosphate 3-kinase catalytic subunit alpha isoform (PIK3CA, Homo sapiens, UniProt P42336, H1047Y)",cell-free assay,100
"Mast/stem cell growth factor receptor Kit, autoinhibited (KIT, Homo sapiens, UniProt P10721)",cell-free assay,100
"Protein-tyrosine kinase 6 (PTK6, Homo sapiens, UniProt Q13882)",cell-free assay,97
"NT-3 growth factor receptor (NTRK3, Homo sapiens, UniProt Q16288)",cell-free assay,100
"Cyclin-dependent kinase 4 (CDK4, Homo sapiens, UniProt P11802)",cell-free assay,96
"Ribosomal protein S6 kinase alpha-6, N-terminal kinase domain (RPS6KA6, Homo sapiens, UniProt Q9UK32)",cell-free assay,100
"Ribosomal protein S6 kinase alpha-4, N-terminal kinase domain (RPS6KA4, Homo sapiens, UniProt O75676)",cell-free assay,83
